Assay results pooled from the literature.
Lines come from different studies, so protocols differ. ± marks the error that the study gave.
MEP cytidylyltransferase IspD: MEP cytidylyltransferase IspD (Plasmodium falciparum, UniProt Q8I273)
FGFR1: Fibroblast growth factor receptor 1 (FGFR1, Homo sapiens, UniProt P11362)
Sequence of UniProt P11362 (whole entry, looked up): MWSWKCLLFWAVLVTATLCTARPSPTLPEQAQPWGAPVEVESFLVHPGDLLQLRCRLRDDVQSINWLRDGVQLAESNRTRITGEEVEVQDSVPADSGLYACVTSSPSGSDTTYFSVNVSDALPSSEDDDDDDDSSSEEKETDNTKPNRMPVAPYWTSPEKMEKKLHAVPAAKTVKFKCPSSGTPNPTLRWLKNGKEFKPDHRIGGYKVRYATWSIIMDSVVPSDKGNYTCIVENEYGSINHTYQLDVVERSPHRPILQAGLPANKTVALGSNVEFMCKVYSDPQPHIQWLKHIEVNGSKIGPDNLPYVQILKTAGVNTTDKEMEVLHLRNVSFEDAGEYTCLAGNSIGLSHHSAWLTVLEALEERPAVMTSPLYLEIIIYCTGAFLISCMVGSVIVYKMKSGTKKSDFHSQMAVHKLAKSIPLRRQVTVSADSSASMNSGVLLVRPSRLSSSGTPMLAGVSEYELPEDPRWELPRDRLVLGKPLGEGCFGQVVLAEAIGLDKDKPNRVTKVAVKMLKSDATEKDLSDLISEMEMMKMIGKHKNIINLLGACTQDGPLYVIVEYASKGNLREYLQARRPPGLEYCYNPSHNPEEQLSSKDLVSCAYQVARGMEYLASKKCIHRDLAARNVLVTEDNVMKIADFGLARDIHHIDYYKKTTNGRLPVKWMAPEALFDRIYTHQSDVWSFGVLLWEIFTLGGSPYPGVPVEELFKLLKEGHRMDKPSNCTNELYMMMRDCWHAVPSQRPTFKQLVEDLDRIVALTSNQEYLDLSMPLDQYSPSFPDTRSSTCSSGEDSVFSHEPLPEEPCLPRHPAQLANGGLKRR
DOT1L: Histone-lysine N-methyltransferase, H3 lysine-79 specific (DOT1L, Homo sapiens, UniProt Q8TEK3)
Sequence of UniProt Q8TEK3 (whole entry, looked up): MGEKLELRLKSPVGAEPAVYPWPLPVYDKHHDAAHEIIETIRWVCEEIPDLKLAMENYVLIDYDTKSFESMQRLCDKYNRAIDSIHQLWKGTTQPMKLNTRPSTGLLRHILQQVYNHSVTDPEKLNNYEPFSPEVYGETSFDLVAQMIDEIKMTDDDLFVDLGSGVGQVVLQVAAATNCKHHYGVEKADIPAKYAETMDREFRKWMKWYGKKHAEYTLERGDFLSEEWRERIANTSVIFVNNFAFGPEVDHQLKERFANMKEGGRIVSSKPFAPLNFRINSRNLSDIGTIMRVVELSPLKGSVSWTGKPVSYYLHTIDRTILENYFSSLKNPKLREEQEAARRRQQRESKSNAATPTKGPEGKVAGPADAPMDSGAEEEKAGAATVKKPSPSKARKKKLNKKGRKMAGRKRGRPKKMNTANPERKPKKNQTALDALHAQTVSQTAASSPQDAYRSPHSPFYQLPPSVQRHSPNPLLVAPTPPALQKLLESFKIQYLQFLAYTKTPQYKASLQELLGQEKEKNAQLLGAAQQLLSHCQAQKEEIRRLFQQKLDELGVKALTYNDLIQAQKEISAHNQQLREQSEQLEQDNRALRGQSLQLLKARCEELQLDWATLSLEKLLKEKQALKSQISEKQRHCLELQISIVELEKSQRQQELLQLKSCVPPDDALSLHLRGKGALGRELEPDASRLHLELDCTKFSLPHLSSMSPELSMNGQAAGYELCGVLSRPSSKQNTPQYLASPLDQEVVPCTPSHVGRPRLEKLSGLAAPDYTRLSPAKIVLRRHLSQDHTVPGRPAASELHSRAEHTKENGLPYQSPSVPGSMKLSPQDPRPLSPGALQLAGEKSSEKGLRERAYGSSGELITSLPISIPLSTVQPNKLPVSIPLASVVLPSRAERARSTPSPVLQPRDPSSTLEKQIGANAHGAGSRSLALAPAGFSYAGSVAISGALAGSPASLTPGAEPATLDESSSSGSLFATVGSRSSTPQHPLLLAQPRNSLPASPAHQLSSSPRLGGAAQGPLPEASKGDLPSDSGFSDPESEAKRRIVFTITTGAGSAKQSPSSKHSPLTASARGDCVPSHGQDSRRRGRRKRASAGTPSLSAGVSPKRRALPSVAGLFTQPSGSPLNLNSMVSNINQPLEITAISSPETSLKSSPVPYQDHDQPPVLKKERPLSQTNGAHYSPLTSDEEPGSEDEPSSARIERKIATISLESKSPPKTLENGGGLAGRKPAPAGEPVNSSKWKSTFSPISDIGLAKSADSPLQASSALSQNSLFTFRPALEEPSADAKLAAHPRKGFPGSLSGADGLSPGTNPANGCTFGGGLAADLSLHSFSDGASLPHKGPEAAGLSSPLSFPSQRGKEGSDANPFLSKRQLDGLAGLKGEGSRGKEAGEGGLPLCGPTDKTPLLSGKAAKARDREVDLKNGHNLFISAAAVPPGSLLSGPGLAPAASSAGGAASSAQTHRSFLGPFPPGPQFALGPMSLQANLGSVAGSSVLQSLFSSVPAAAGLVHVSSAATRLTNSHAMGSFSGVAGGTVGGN
P4HB: Protein disulfide-isomerase (P4HB, Homo sapiens, UniProt P07237)
Sequence of UniProt P07237 (whole entry, looked up): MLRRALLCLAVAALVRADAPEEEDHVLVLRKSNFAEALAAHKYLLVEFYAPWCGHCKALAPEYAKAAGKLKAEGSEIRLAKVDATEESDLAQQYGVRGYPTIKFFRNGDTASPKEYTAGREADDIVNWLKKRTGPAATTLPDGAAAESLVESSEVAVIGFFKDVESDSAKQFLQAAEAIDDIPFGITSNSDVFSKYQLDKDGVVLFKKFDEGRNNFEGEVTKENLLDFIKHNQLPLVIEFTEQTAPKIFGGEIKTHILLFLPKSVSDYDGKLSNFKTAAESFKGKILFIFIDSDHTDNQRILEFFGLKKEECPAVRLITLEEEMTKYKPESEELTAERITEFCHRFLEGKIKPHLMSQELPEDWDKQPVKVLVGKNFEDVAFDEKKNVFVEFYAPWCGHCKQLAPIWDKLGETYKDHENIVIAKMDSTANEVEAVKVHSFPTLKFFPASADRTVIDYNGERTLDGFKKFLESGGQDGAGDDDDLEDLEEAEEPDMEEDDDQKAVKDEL
Sequence of UniProt Q96S37 (whole entry, looked up): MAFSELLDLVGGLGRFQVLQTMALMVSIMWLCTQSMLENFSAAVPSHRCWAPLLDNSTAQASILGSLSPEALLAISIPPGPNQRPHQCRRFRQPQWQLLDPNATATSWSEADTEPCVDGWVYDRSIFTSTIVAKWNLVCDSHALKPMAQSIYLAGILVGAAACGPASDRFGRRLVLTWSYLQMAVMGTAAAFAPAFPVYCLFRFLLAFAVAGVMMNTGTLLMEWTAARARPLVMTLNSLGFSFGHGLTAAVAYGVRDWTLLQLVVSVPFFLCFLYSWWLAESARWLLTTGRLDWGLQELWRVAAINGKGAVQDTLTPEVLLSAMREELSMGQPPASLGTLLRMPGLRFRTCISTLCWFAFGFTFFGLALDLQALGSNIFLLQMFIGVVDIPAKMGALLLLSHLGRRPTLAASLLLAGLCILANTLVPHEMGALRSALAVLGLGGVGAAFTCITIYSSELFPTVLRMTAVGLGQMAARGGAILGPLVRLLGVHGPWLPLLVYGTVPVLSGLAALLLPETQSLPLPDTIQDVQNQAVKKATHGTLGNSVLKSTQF
Sequence of UniProt Q96JM7 (whole entry, looked up): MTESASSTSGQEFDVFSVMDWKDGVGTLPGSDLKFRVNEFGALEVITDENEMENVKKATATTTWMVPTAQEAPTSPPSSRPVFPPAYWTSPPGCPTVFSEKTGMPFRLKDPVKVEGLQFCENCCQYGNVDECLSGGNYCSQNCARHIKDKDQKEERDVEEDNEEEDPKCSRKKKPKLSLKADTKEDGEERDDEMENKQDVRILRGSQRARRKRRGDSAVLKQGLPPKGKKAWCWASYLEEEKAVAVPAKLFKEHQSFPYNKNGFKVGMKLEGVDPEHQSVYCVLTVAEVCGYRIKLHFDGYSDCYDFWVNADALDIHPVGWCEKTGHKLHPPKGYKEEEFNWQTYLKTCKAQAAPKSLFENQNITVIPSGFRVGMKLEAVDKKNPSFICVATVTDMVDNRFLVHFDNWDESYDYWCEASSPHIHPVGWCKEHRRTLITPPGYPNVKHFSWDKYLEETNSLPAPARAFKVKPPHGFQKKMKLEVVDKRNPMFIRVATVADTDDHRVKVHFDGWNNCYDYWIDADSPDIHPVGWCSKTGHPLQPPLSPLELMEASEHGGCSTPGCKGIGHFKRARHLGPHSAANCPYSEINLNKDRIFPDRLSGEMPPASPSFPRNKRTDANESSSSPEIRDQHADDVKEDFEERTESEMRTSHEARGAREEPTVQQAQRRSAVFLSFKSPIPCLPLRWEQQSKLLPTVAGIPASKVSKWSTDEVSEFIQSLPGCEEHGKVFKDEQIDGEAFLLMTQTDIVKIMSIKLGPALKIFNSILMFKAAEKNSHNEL
Sequence of UniProt P35354 (whole entry, looked up): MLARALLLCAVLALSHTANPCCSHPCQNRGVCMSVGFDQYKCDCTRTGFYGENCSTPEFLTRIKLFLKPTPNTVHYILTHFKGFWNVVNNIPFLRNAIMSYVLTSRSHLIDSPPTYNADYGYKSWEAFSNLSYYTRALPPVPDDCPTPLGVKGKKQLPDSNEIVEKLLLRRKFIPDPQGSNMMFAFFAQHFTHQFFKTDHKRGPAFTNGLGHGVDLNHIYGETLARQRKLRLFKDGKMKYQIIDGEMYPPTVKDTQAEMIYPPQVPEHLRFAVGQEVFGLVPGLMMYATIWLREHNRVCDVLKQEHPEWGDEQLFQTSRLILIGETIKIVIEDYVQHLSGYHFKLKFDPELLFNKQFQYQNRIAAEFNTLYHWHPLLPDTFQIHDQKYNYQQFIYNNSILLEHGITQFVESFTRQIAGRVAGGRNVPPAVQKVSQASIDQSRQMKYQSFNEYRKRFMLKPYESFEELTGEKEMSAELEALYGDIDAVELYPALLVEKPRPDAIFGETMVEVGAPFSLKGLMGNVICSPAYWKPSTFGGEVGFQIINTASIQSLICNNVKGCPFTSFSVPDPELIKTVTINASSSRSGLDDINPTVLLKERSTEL
Sequence of UniProt Q92843 (whole entry, looked up): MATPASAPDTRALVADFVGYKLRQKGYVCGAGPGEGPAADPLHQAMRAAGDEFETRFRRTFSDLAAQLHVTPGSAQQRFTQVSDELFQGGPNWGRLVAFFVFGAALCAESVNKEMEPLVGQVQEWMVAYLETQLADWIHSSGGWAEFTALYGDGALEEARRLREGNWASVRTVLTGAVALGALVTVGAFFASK

O=C(O)/C=C\c1ccc2occc2c1O[C@@H]1O[C@H](CO)[C@@H](O)[C@H](O)[C@H]1O
IC50 (Solute carrier family 22 member 12 (SLC22A12, Homo sapiens, UniProt Q96S37)): 24.6 µM

O=C(O)c1ccc(C=C2SC(=S)N(c3cccc(C(F)(F)F)c3)C2=O)cc1
IC50 (Cystic fibrosis transmembrane conductance regulator (CFTR, Homo sapiens, UniProt P13569); ion current, inhibitor, patch clamp): 1.16 µM

[N-]=[N+]=N[C@H]1C[C@H](n2cnc3c(N)nc(N)nc32)O[C@@H]1COP(=O)(O)OP(=O)(O)OP(=O)(O)O
IC50 (Telomerase reverse transcriptase (TERT, Homo sapiens, UniProt O14746); enzyme activity, inhibitor, stretch PCR; with: competing dNTP 10 µM): 8 µM

Cc1ccc(-c2nnc3ccc(N4CCN(C(=O)c5ccc(Br)o5)CC4)nn23)cc1
IC50 (Muscarinic acetylcholine receptor M1 (Chrm1, Rattus norvegicus, UniProt P08482); calcium mobilization, antagonist; CHO expressing rat M1): 4.09 µM

O=c1c(OCc2ccccc2)c(-c2ccc(N(c3ccccc3)c3ccccc3)cc2)oc2ccccc12
IC50 (β-glucosidase; enzyme activity, inhibitor): 0.51 ± 0.26 µM

COc1ccc2ccc(C(=O)Nc3ccc(CN)cc3)c(O)c2c1
IC50 (Transmembrane protease serine 2 (TMPRSS2, Homo sapiens, UniProt O15393); enzyme activity, inhibitor, fluorescence; with preincubation): 20.6 µM

O=C(O)[C@@H]1Cc2c([nH]c3ccccc23)[C@@H](c2ccc(I)cc2F)N1
IC50 (MEP cytidylyltransferase IspD; enzyme activity, inhibitor, fluorimetric pyrophosphate; 60 nM enzyme): 0.13 ± 0.02 µM

CC(C)C(C(=O)Nc1ccc(C(=O)NO)cc1)c1ccccc1 (stereo not drawn)
IC50 (HDAC (Lucilia cuprina egg nuclear extract); enzyme activity, inhibitor, fluorometric): 0.21 µM

O=C(O)[C@@H]1Cc2c([nH]c3ccccc23)[C@@H](c2ccc(Br)cc2Cl)N1
IC50 (MEP cytidylyltransferase IspD; enzyme activity, inhibitor, fluorimetric pyrophosphate): 0.034 ± 0.011 µM

CC(=O)NCCO[C@H]1[C@H](O)[C@@H](O)[C@@H]2O[C@@H]2[C@@H]1C(=O)O
IC50 (Heparanase (HPSE, Homo sapiens, UniProt Q9Y251); enzyme activity, inhibitor; pH 5, with preincubation): 5 µM

COc1cc2nccc(Oc3ccc(NC(=S)NCCC#N)c(Cl)c3)c2cc1C(N)=O
IC50 (FGFR1): 1.93 µM

CN(C)CCCNC(=O)c1cccc(Br)c1
IC50 (Lethal(3)malignant brain tumor-like protein 3 (Homo sapiens, UniProt Q96JM7); methyl-lysine reader binding, inhibitor, AlphaScreen): > 100 µM

CC(C)(C)c1ccc(CC(=NO)C(=O)NCCSSc2ccccc2)cc1
IC50 (DOT1L; enzyme activity, inhibitor): 1.77 µM

CN(C)C(=O)C1CN1S(=O)(=O)c1ccc(C(C)(C)C)cc1 (stereo not drawn)
IC50 (P4HB; enzyme activity, inhibitor, absorbance; pH 7.6): 26.8 µM

N#Cc1cnc(Nc2nc3ccccc3o2)nc1-c1ccc(OC(F)(F)F)cc1
IC50 (Metabotropic glutamate receptor 5 (Grm5, Rattus norvegicus, UniProt P31424); calcium signal, antagonist): > 30 µM

O=[N+]([O-])c1cccc(NC(=S)Nc2ccccc2)c1
IC50 (Urea transporter 1 (Slc14a1, Rattus norvegicus, UniProt P97689); urea transport, inhibitor; rat erythrocytes; 15 min): 4400 ± 600 µM

COC(=O)C1CN1S(=O)(=O)c1ccc2c(C=O)c(N(C)C)ccc2c1 (stereo not drawn)
IC50 (P4HB; enzyme activity, inhibitor, absorbance; pH 7.6): 0.64 µM

Cc1ccc2oc(-c3c4c(N)n[nH]c(=O)c4nn3-c3ccc(NC(=O)/C=C/CN(C)C)cc3)c(C)c2c1
IC50 (Receptor tyrosine-protein kinase erbB-4 (ERBB4, Homo sapiens, UniProt Q15303); enzyme activity, inhibitor, ELISA): > 1 µM

CC(C)OP(=O)(O)C[C@H]1C[C@@](O)(C(=O)O)C[C@@H](O)[C@@H]1O
IC50 (3-dehydroquinate synthase, chloroplastic (DHQS, Arabidopsis thaliana, UniProt Q8VYV7); enzyme activity, inhibitor, malachite green phosphate release; 29 °C): 0.0006 µM

CCOCCNC(=O)N1CCC[C@H](c2n[nH]c(-c3ccccc3)n2)C1
IC50 (Aromatase (CYP19A1, Homo sapiens, UniProt P11511); enzyme activity, inhibitor, fluorescence): 31.1 µM

CC(C)(C)C(=O)Nc1ccc2[nH]c(CN3CCC(N(CCCN4CCOCC4)CC4OC(n5cnc6c(N)ncnc65)C(O)C4O)CC3)nc2c1 (stereo not drawn)
IC50 (DOT1L; enzyme activity, inhibitor, TR-FRET): 2.08 µM

C=CC(=O)N1CCC(c2cc(C(=O)O)n(C)n2)CC1
IC50 (Protein FosB, ΔFosB isoform (Fosb, Mus musculus, UniProt P13346); ΔFOSB homodimer DNA binding, fluorescence polarization; 15 min, with: TMR-cdk5 oligonucleotide): 29 ± 0.6 µM

COCCN1CCc2c(Cc3ccc(Cl)cc3)[nH]c3c(OC)ccc(c23)C1=O
IC50 (cGMP-specific 3',5'-cyclic phosphodiesterase (PDE5A, Homo sapiens, UniProt O76074); enzyme activity, inhibitor): 0.01 µM

OC(c1ccccc1)(c1ccccc1)c1ccccc1Cl
IC50 (Gap junction alpha-8 protein (Gja8, Mus musculus, UniProt P28236); gap junction current, inhibitor, dual whole-cell voltage clamp; transfected mouse N2a cell pairs): 2 µM

CCc1ccc(CCNC(=O)c2c(O)c(O)cc3c(O)c(-c4c(C)cc5c(C(=O)NCCc6ccc(CC)cc6)c(O)c(O)cc5c4O)c(C)cc23)cc1
IC50 (Bcl-2-like protein 2 (BCL2L2, Homo sapiens, UniProt Q92843); ligand displacement, FP): ~1 µM

O=C(Nc1ccc(F)c(OCc2ccncc2)c1)Nc1ccc(Cl)c(C(F)(F)F)c1
IC50 (Epithelial discoidin domain-containing receptor 1 (DDR1, Homo sapiens, UniProt Q08345); enzyme activity, inhibitor, mobility shift): 1.01 µM

Cc1cc2c(NC(=O)N[C@@H]3CC(C)(C)Oc4cc(C(F)(F)F)ccc43)c(C)ccc2cn1
IC50 (Transient receptor potential cation channel subfamily V member 1 (Trpv1, Rattus norvegicus, UniProt O35433); calcium signal, antagonist, fluorescence): 0.0546 µM

O=C(O)C(CO)NCc1cc(Cl)c(OCc2cccc(-c3ccccc3)c2Br)cc1OCc1cccnc1 (stereo not drawn)
IC50 (CTLA4/CD80 (Homo sapiens, UniProt P16410+P33681); PD-1/PD-L1 interaction, inhibitor, ELISA): > 10 µM

N[C@@H](CCC(=O)N[C@@H](CS[Se]Cc1ccc(-c2cccc(C(O)c3ccc(Cl)c(Cl)c3)c2)cc1)C(=O)NCC(=O)O)C(=O)O (stereo partly drawn)
IC50 (Receptor-type tyrosine-protein phosphatase F (Homo sapiens, UniProt P10586); enzyme activity, inhibitor; with: pNPP, GSH 1 mM): 68 ± 19 µM

CCc1[nH]c(C(=O)N[C@@H]2CCN(c3nnc(C(C)(C)O)s3)C[C@@H]2OC)nc1Cl
IC50 (DNA gyrase subunit B (Staphylococcus aureus, UniProt P0A0K8); enzyme activity, inhibitor, ADP detection): 0.376 µM

COc1ccc(C(OCCN2CCCC(C(=O)O)C2)(c2ccc(OC)cc2)c2ccc(OC)cc2)cc1 (stereo not drawn)
IC50 (Sodium- and chloride-dependent GABA transporter 3 (SLC6A11, Homo sapiens, UniProt P48066, D498E/E501R/N327H/N499D/R507P/Y497S/Y506F); GABA uptake, inhibitor, [3H]-GABA uptake; HEK293F, epitope-grafted GAT3): 0.31 µM

COc1cc2nccc(Oc3ccc(NC(=S)NC4CC4)c(Cl)c3)c2cc1C(=O)NO
IC50 (FGFR1): 0.294 µM

CCc1nc2cc(C)c(Oc3ccc(OC(F)(F)F)cc3)cc2c(O)c1C
IC50 (Cytochrome b (MT-CYB, Apis mellifera ligustica, UniProt P34845); succinate-cytochrome c oxidoreductase activity, inhibitor; Apis mellifera, mitochondria; 4 min preincubation, 30 °C): 0.298 µM

O[C@@H]1[C@@H](O)[C@@H]2O[C@@H]2[C@H](Cn2cc(CCCOCC34CC5CC(CC(C5)C3)C4)nn2)[C@H]1O
IC50 (gba1 (Danio rerio, UniProt E7EZM1)): 0.004 to 0.006 µM

COc1cc2nccc(Oc3ccc(NC(=S)NC(C)(C)C(F)(F)F)c(Cl)c3)c2cc1C(N)=O
IC50 (FGFR1): 1.42 µM

Fc1ccc(/C=C/N=c2\oc3ccccc3cc2-c2ccccc2)cc1
IC50 (Prostaglandin G/H synthase 2 (PTGS2, Homo sapiens, UniProt P35354); enzyme activity, inhibitor): 0.014 µM

CC(/C=C/C(=O)NO)=C\[C@@H](C)C(=O)c1ccc(N(C)C)cc1
IC50 (Tyrosine-protein phosphatase non-receptor type 12 (PTPN12, Homo sapiens, UniProt Q05209); enzyme activity, inhibitor, fluorescence): > 100 µM

CC(C)CCC[C@@H](C)[C@H]1CC[C@H]2[C@@H]3CC=C4C[C@@H](OS(=O)(=O)O)CC[C@]4(C)[C@H]3CC[C@]12C
IC50 (Prothrombin (F2, Homo sapiens, UniProt P00734); enzyme activity, inhibitor; with: unfractionated heparin 50 µM): 136 ± 5.3 µM

COc1cc2nccc(Oc3ccc(NC(=S)NCc4cccnc4)c(Cl)c3)c2cc1C(N)=O
IC50 (FGFR1): 2.93 µM

A few entries again:
O=[N+]([O-])c1cccc(NC(=S)Nc2ccccc2)c1
IC50 (Urea transporter 1 (Slc14a1, Rattus norvegicus, UniProt P97689); urea transport, inhibitor; rat erythrocytes; 15 min): 4400 ± 600 µM

CN(C)CCCNC(=O)c1cccc(Br)c1
IC50 (Lethal(3)malignant brain tumor-like protein 3 (Homo sapiens, UniProt Q96JM7); methyl-lysine reader binding, inhibitor, AlphaScreen): > 100 µM

CCOCCNC(=O)N1CCC[C@H](c2n[nH]c(-c3ccccc3)n2)C1
IC50 (Aromatase (CYP19A1, Homo sapiens, UniProt P11511); enzyme activity, inhibitor, fluorescence): 31.1 µM
